Experimental data from different studies.
A part holds a random share of what one study measured. Substitutions count along the parent as printed.

Block 1 — technique: protein-binding microarray; form: double-stranded DNA, one strand shown; sample: in vitro; tested at: 250 nM; notes: 60-bp whole probe; together with: salmon DNA 0.4 mg/ml; reference: random background probes; direction: higher = stronger binding; shared flanks, not repeated: GCCTAGCAC … GTCTTGATTCGCTTGACGCTGCTG
Target: Interferon regulatory factor 5, full length, phosphomimetic (IRF5, Homo sapiens, UniProt Q13568-2, residues 1-514, K96S/S451D/S453D/S456D/S462D)
Oligonucleotide	log fluorescence
GACGGACTGATTTTCCTGACGTGCTAG	-0.117 z-score
GAACTTTGGCCTCTAGGTTTGTGCTAG	-0.439 z-score
TTAGGATTGCTTTTCCTTTAGTGCTAG	0.559 z-score
TTAGAACTGAGTTTCGACTAGTGCTAG	7.14 z-score
TTAGGCATCGGTTTCGGTTAGTGCTAG	8.54 z-score
GACGGTATCGGTTACGGGACGTGCTAG	6.57 z-score
TCAGCTTTGTGCCTAGCACTGTGCTAG	-0.0163 z-score
GACGGTTTCGGGTATCTGGACGTGCTA	7.98 z-score
GACGGTCTCCTTCACCTGACGTGCTAG	0.111 z-score
TTAGATATCAGTATTGATTAGTGCTAG	1.64 z-score
TTAGACCTGAGTTTCGATTAGTGCTAG	9.31 z-score
GACCGACTGGGGACTGGGGACGTGCTA	-0.396 z-score
GTCGGTATCGGTATCGGGACGTGCTAG	7.6 z-score
TTAAGACTGGGGTATCGGTTAGTGCTA	2.67 z-score
TCATGTGTGTGTATGTGACTGTGCTAG	0.0871 z-score
GACGGTAGCGACACTGGGGACGTGCTA	-0.528 z-score
TGTGGCTTAGTTTGTCAAAAAGTGCTA	-0.277 z-score
GACAAACTGAGTATCGAGACGTGCTAG	2.11 z-score
CCAAATCTGTGTTATTAAAATGTGCTA	0.377 z-score
AGGAGAGATTAAGTAACTTAGTGCTAG	-0.0889 z-score
GAGGATCTCAGTCTCGAGACGTGCTAG	-0.25 z-score
GGAGGCCTCTTCATTCATTAAGTGCTA	-0.172 z-score
CAAATACTCTTCCATGGAGAAGTGCTA	0.354 z-score
GACGGTCTCCCTCTCCTGACGTGCTAG	-0.289 z-score
TTAGGACTGGACTTTCGATTAGTGCTA	8.56 z-score

Block 2 — target: CCNB1, cyclin fold, Cln2 fusion (human); technique: yeast growth competition, sequencing; sample: yeast; notes: strong parent motif; reference: not given; direction: higher = stronger binding
Parent: RBL2 docking peptide (human); STTRRRLFVENDS
Change	normalised enrichment score
R5H	0.519
L7I	1.16
N11Y	0.683
R5Y	0.729
T3S	0.367
T2K	2.29
S13P	1.87
D12L	0.198
R4M	0.153
F8V	-0.122
L7T	0.481
L7A	1.38
R5Q	1.52
L7K	0.53
E10A	0.457
D12F	-0.389
V9I	0.263
S1V	0.95

Block 3 — target: NFE2, bZIP domain (human); technique: DHFR protein complementation; sample: yeast; reference: wild-type JUN-FOS pair; direction: higher = stronger binding
Notes: single substitutions, most at no-binding floor
Parent: JUN, bZIP domain (human); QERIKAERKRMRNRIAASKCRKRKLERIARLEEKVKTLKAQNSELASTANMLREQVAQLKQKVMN; partner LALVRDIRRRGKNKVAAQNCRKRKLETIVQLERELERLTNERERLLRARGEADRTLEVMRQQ
Change	binding fitness
V35E	-1.46 natural log
Q58T	-1.4 natural log
Q55C	-1.46 natural log
Q41D	-1.26 natural log
A49E	-1.47 natural log
Q41T	-1.44 natural log
R53S	-1.47 natural log
T37S	-1.46 natural log
E32V	-1.31 natural log
E44F	-1.5 natural log
A49Y	-1.43 natural log
M51T	-1.43 natural log
A49R	-1.4 natural log
S47P	-1.52 natural log
L52Q	-1.52 natural log
E54M	-1.5 natural log
V56C	-1.43 natural log

Block 4 — technique: RNA Bind-n-Seq; form: RNA; sample: in vitro; tested at: not given; reference: input RNA pool; direction: higher = stronger binding
Target: RING finger protein unkempt homolog, zinc fingers 1-6, GST-SBP tag (UNK, Homo sapiens, UniProt Q9C0B0, residues 30-357)
UniProt Q9C0B0, sequence (30-357, looked up): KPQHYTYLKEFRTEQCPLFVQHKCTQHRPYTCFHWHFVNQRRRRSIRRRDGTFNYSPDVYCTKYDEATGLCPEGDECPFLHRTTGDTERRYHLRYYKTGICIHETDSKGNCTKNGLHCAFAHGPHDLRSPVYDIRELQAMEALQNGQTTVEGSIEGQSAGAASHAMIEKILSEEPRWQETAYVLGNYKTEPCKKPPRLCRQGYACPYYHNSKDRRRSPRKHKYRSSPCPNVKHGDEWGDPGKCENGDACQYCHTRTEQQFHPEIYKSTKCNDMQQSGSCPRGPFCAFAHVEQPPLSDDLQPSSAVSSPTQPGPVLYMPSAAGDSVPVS
Notes: RNA with constant flanks, human and mouse sites, ends assumed
Shared flanks, not repeated: GGGAGUUCUACAGUCCGACGAUC … CAACAGAGGAUUGAGCAUCA
Oligonucleotide	bound/input enrichment
CCAACCAUAACAUCCAAGUCCAGUGUCAUUUUUCUGCUCACAAGUUUAAAGUCAGCACUUAAAAGAACAGCAACAGAUGAUUGAGAAAGAAAUGUAAAGAAGGUUCUCUUUGUGUGAGUA	0.189 ratio
CCAUGUCAGCGUCCCCGUCCUGUUCCCAGCUGCCUGUGGAAGAUGACGUUUAUGUAUGCGAAUAAGUCACACUGUUAACCAAGUCUCUCAGGAGUGUAGUGAUAGCUGCCACACUCUGGA	0.203 ratio
UUUCAGAAAUAUAGAGGCCUCAAGAGUUUCCGGACAUCUCCUUGGGAUCCUAAAGAAAACCUUCCUAGAGAUUAUGCUCGGAUAUUUCAGUUUCAGAAUUUUGUUAAUACUAGAAAAAGA	0.66 ratio
GUUACAUAAGUCAGGAGCUUUCUCAGUUCUGAAAAAGGAGCAUGACUGUGUCUGCACAGAAAGAACCACUUCUAGGGAAAUUGACAGUGAGACAAAGCUGAAACCACUCUCUGUAGUGCG	0.393 ratio
AUGGGGGCUAAUCCCUAUGGCCAAGCAGCAGCAUCUAACCAACUGGGUUCCUGGCCCGAUGGCAUGUUGUCCAUGGAACAAGUUUCUCAUGGCACUCAAAAUAGGCCUCUUCUUAGGAAU	0.169 ratio
GGCCGGCGGCGGCGCGCGGACUCCGCAUCCCGCACCCCGAUGGUAGCCGAGGAGCUGGUGUAAUUACUUCAAGCCUCCAGGAUGGCAAUCCAGUUCCGUUCGCUCUUCCCCUUGGCAUUG	0.202 ratio
AUAUUUUCACAUGCUUAUUUUCAUCAUCGGCAGAUAUUUGAUGAAUAUGAAAAUGAAACAUUUUUGUGUCAUCGGUUUACUAAGUUUGUGAUGAAAUACAAUUUGAUGUCCAAGGAUAAC	0.165 ratio
AUAUGCCUGUGGCUGCUGGACACAUACCCAUAUAACCCCCCUAUCUGUUUUGUUAAGCCUACUAGUUCAAUGACUAUUAAAACAGGAAAGCAUGUGGAUGCAAAUGGGAAAAUCUACCUA	0.234 ratio
GGACUUAUGGGGAGCCCGAGUCUGCCGGCCCGUCCAGGGCUGUCCGCCAGUCAGUGACUUCAUUCCCAGAUGCUGACGCUUUCCAUCACCAGGUGCAUGAUGACGAUCUUUUGUCUUCUU	0.226 ratio
GUUUCAGCCGCAGCUGAAUUUGAGAAUGCUGAAUCUGAGGCUGAUUUCAGUAUACAUUUCAAUAGAUUCAACCCCGAUGGGGAAGAGGAAGAUGUUACAGUACAAGAAUGACUUUCUCUU	0.221 ratio
CUUCCUAAUAAAGUGCCAUACUCUUUUCUACAACGCAUGUUAAAAAGAGGAAAAGAGGCUCCUUUGAUCGCUGAUAAUCAUCUUGAGAAUGUUUGUUUAAGGACUCCAGCAGAAGAUGAG	0.115 ratio

Block 5 — technique: protein-binding microarray; form: double-stranded DNA, one strand shown; sample: in vitro; tested at: 0.8 µM; notes: whole 60-bp probe, no competitor; direction: higher = stronger binding; shared flanks, not repeated: … GTCTTGATTCGCTTGACGCTGCTG
Target: Centromere-binding protein 1, full length, N-terminal tag (CBF1, Saccharomyces cerevisiae, UniProt P17106, residues 1-351)
UniProt P17106, sequence (whole entry, looked up): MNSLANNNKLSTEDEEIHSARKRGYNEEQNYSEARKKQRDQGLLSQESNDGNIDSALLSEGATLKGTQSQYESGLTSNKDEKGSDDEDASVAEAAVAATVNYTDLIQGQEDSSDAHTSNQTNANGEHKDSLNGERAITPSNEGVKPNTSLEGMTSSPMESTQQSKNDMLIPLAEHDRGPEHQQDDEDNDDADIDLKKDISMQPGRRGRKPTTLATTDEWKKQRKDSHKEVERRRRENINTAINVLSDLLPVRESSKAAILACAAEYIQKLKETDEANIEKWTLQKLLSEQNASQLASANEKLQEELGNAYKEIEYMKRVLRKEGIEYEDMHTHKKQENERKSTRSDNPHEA
Oligonucleotide	fluorescence intensity [a.u.]
GAACTTCATCAAACAAACGTGCGCTGTTTGACTTAG	570
CTAAAAAGTTCCCCCCTCGTGGCCAGCGACGTTTTC	491
GAAAACGAGATTTGCTAGGTGATGACGACGGTGTAG	534
GAAAAACTTCTATTGAAGGTGACATAGAGGCATTAG	538
GAATTCAGAACTTATCACGAACAACGATGTGGTTAG	509
GAATTATAAGCTCATCACCTCTTTATTAAGTAGTAG	530
GAAAGCCATAATTTACACCTCACGTACATAGTTTAG	546
GAACAAAGTCACATACTGATGATGATATTGTAATAG	543
CTACTTATTCAACGTGACGTTGTGATATATGTATTC	1400
CTAGGAAAAAGGTTTGTCACGAGCACCTAACTATTC	1270
CTAATGACCCACTCAGGTGTTAAAGTGTGTCATTTC	556
CTAGCGCTGCTAAATCATGTGAGTTTAGCGCGTTTC	981
GAATTTAGGCACCGTCAGGTACTAAGGGCTAAATAG	469
CTAGGGCGGCAAAATCATGAGAAGCGCACATGTTTC	619
CTATTTAATTCTTGTCACCAGTAAACAGAACATTTC	621
TGTACGAAGCTATTTCAGTTGATTATAGTAGTTAGG	510
CTAGTTTATCAATAACGTGTGCATCGTCGATATTTC	584
TGTACGAAGCTATAAGACGTGTATATAGTAGTTAGG	536
GAAGTAGCTCTTTATCACGCACACCTCATTTGCTAG	604
CCTAACTACTATAATTGCATGACATAGCTTCGTACA	544
GAAGCCTATCCAGATTGGGTGACGCGTAAAGGATAG	521
GAAGAAAAATAGCTGCACGCTTTTCCAGGAATATAG	586
CTATTTTTCGGGGCGCCCGTGCAAAAACTAACTTTC	557
GAACTAGGGAAATTGCACATGGAAGTATCTGGATAG	554
CTACAACTTCACGCCCACGTTGAGAGTACATTCTTC	636

Some of these lines once more (block 2):
Change	normalised enrichment score
N11Y	0.683
T2K	2.29
V9I	0.263
L7I	1.16
S1V	0.95
E10A	0.457
D12F	-0.389
R4M	0.153
F8V	-0.122
